Measurements of several laboratories.
Parts stem from different laboratories: compare values within a part only. Changes are numbered by the printed parent chain.

Series 1 — technique: RNA Bind-n-Seq; form: RNA; matrix: in vitro; tested at: 100 nM; relative to: input RNA pool; direction: higher = stronger binding
Target: RING finger protein unkempt homolog, zinc fingers 1-6, SBP tag (UNK, Homo sapiens, UniProt Q9C0B0, residues 30-357)
Chain of UniProt Q9C0B0 (30-357, looked up): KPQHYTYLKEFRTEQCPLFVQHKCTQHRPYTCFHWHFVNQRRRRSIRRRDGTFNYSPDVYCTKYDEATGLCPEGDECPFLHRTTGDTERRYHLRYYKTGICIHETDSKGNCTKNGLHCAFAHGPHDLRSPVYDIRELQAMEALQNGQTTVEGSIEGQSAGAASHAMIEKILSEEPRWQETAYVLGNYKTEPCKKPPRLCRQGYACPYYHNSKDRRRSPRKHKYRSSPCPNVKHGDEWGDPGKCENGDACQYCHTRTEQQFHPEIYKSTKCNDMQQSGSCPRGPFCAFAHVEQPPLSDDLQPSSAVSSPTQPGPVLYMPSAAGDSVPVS
Setting: RNA with constant flanks, vertebrate orthologous sites, ends assumed
Constant ends, left off below: GGGAGUUCUACAGUCCGACGAUC … CAACAGAGGAUUGAGCAUCA
Oligonucleotide	bound/input enrichment [ratio]
AAAUUUAUUUUAUGCCCUGGACUCCCUACCGCACCGAUACUUUGAUAGAAUAUGCUUCUAUAGAAGACUUUCAAAACAGCCGCCAGACAACAACAUACAAACUUCCGAAUCGAGUAGAUG	1.23
CCUGAAGCUGUGUGUUUGGCUGCACCUGCAUAAGCUGCUACAAAUAGAAUAAAGAAUUCAUAGCCUGUAUCUAUCAUUAGAUGCAUGGAAAACUGGGCUUUGCACACAAUGGGUUUGAAG	1.27
CCAAAGAAUCGACCCCAAAUUUGCCCCAGAGAUUUUGAAAAUGAUAUUGAAAGGAUUAUUUGCGCAUGGAUGCUCAGCGGUCCUCUGAGAUUUCUCAAGCAGUGUGAUUAAGAUCCGUGA	0.278
CAUUAACACACAAAAUGUCUCCAGGGGGGUAUUAGAUUUGAUUUCUUACAUAUAAAAAAAACCAACCAACCAUUUUUAAAGUAGAAGAGGGUUUUAGAUAGUAAAUGAAAUAUUCUUUUU	1.28
CAUGUGCUGGUGCAGAGCCGUCUGUGCCACUGCGCAUCGUCCCUUGGUACCAACUGUCUCUAGUUGUAGGAAUUUAAUAUUUUUAAAAGUUUUACAUUGCUGUAUAUUCAAAGAUUUGUU	0.285
ACGCUUUGAUAUUAAAUUUGACAUAAAAAGCAGCUGAUUGUAAGCACAACUCUUUCCUCCUAGCCAUUCAAAAAGGUAAAAGACAAAAAAGAAAACCUACUAGUCUUGAACAAACUGUCA	0.569

Series 2 — technique: universal PBM; form: double-stranded DNA, one strand shown; matrix: in vitro; tested at: 600 nM; direction: higher = stronger binding
Target: Sal-like protein 4, full length isoform A (SALL4, Homo sapiens, UniProt Q9UJQ4, residues 1-1053)
Chain of UniProt Q9UJQ4 (whole entry, looked up): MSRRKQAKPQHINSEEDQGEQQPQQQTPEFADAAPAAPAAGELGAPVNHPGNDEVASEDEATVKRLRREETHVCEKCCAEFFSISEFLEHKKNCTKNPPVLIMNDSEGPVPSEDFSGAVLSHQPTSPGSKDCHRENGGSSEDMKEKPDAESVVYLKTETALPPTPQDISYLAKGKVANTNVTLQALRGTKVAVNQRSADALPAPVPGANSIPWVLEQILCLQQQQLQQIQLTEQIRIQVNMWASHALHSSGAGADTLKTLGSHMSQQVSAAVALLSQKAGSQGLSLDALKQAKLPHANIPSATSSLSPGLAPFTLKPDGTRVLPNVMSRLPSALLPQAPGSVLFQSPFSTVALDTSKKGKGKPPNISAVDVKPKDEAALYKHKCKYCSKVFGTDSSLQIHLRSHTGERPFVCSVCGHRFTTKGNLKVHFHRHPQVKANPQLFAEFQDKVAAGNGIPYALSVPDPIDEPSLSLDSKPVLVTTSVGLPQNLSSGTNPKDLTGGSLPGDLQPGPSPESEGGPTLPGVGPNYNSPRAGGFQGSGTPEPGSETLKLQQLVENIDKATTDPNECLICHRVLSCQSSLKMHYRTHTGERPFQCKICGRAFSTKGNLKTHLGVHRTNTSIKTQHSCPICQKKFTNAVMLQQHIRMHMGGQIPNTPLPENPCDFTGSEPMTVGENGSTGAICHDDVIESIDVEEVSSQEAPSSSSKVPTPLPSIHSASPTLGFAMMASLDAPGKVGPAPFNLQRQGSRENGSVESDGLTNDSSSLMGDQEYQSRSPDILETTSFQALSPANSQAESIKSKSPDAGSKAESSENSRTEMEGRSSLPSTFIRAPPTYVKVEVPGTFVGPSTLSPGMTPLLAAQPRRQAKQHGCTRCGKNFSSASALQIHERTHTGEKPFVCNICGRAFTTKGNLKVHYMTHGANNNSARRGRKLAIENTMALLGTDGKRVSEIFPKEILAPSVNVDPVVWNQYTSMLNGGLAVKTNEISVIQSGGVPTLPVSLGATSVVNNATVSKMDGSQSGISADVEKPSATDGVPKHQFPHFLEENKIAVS
Setting: 8-mer, flanks averaged, mean of replicates
Oligonucleotide	E-score
CTAGCCCC	-0.165
ACTAAAGT	0.0415
CCGAAGAC	-0.213
CACATTAC	0.181
AGCCGCGG	-0.286
CCAGCGCG	-0.386
ATGGTATC	0.0965
AGCCTCTG	-0.288
ACCGCGCT	-0.247
ACTCAATC	0.0633
GCCCAGAA	-0.243
TAACATGA	0.233
AGGCAGAA	0.0201
ATTGCAAA	0.261
GCCGTGAC	-0.0443

Series 3 — technique: protein binding microarray; form: double-stranded DNA, one strand shown; matrix: in vitro; tested at: not given; relative to: not given; direction: higher = stronger binding
Target: Histone acetyltransferase KAT6A, winged helix 2, GST fusion (KAT6A, Homo sapiens, UniProt Q92794, residues 85-181)
Setting: 8-mer, flanks averaged, mean of 2 arrays, mostly near background
Residues (chain): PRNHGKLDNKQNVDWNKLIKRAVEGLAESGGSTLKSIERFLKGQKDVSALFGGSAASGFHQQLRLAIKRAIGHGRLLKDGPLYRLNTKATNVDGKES
Oligonucleotide	E-score
CCCACTCA	-0.00485
TAGCTCGA	-0.0332
AAGTTGGT	0.0298
TATAGGAA	-0.0607
CAATGGCG	0.0542
GGAGCGGA	0.0267
ATCGAGTA	-0.175
GCCCATTA	-0.13
CGACAAAG	0.106
ACTAGCAC	-0.142
TGCGGCAA	0.106
AACAGCTA	-0.149
ATATGGCC	-0.0749
AGGCAAAG	0.00021
CCTAAGTC	-0.129

Series 4 — target: CCNB3, cyclin fold, Cln2 fusion (human); technique: yeast growth competition, sequencing; matrix: yeast; setting: strong parent motif; relative to: not given; direction: higher = stronger binding
Starting sequence: BRCA2 docking peptide (human); PSIKRNLLNEFDR; partner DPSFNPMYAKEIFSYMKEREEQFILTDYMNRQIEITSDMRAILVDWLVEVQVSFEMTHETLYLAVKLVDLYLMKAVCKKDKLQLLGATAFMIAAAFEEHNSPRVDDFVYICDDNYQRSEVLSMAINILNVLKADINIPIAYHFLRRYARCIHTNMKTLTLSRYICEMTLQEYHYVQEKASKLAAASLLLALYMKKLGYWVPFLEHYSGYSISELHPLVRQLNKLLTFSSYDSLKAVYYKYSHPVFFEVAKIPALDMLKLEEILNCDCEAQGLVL
Change	normalised enrichment score
L7G	0.23
E10Q	-0.0736
D12A	1.44
F11P	-0.218
L7S	-0.383
R5V	0.755
E10C	-0.0829
R5W	0.285
K4N	0.165
F11C	-0.21
P1Y	1.96
E10D	1.39
L8Y	0.494

Series 5 — technique: protein-binding microarray; form: double-stranded DNA, one strand shown; matrix: in vitro; tested at: 250 nM; setting: 60-bp whole probe; with: salmon DNA 0.4 mg/ml; relative to: random background probes; direction: higher = stronger binding; constant ends, left off below: GCCTAGCAC … GTCTTGATTCGCTTGACGCTGCTG
Target: Interferon regulatory factor 5, full length, phosphomimetic (IRF5, Homo sapiens, UniProt Q13568-2, residues 1-514, K96S/S451D/S453D/S456D/S462D)
Oligonucleotide	log fluorescence [z-score]
TTTACTTTCTTTTTTTCTTTGTGCTAG	5.57
TCAAATTTCTTCCTCCCACTGTGCTAG	0.652
GACGAATTCGGGACTGGAGACGTGCTA	-0.274
TTACGACTGGGTTTCGGTTAGTGCTAG	8.53
TAGTTTTACTTTCTATGTCTGTGCTAG	5.55
GGACGAGCGACGGTGACACTGTGCTAG	-0.879
TTAGATTTCAGACTGGCTTAGTGCTAG	0.303
TCAGCTTTACTGATGGCACTGTGCTAG	-0.191
GACGGTCTCCTTCTCCTGCCGTGCTAG	-0.352
GACGGTTGCGGTTCCGGGACGTGCTAG	0.48
TTAGATATTAGTTTCGATTAGTGCTAG	10.1
TCATGTTTGGTTCTGATACTGTGCTAG	0.589
TTAGGTCTCCTACTACTTTAGTGCTAG	0.0441

Series 6 — technique: RNAcompete; form: RNA; matrix: in vitro; tested at: 20 nM; setting: 7-mer, probes averaged, single round; relative to: mean of 7-mers; direction: higher = stronger binding
Target: PABPC1L2, full length, GST fusion (mouse, UniProt A0ABA7IW68)
Residues (chain): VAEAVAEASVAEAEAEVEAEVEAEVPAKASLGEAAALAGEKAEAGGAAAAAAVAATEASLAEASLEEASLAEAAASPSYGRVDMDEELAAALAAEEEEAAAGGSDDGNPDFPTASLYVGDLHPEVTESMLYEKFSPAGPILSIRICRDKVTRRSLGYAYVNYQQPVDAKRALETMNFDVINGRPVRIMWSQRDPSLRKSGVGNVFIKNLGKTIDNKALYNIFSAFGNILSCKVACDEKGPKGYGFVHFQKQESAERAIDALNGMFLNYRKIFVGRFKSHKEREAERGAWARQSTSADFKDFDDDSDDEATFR
Oligonucleotide	7-mer Z-score
AGCGAAA	0.9
UCCCACG	-0.219
CUUUGGU	-0.398
GGAAACA	0.948
ACGUAGG	0.046
AAAUGUA	0.861
AAACCGA	0.448
UCUCGAG	-0.309
CUAAUAU	-0.267
UUAUCAU	-0.173
GGUGAAG	0.0497

Series 7 — technique: RNA Bind-n-Seq; form: RNA; matrix: in vitro; tested at: 365 nM; relative to: no-protein control; direction: higher = stronger binding
Target: RNA binding protein fox-1 homolog 2, RRM domain, GST-SBP tag (RBFOX2, Homo sapiens, UniProt O43251-10, residues 100-194)
Setting: natural RNA segment, single round, ends assumed
Constant ends, left off below: GGGAGUUCUACAGUCCGACGAUC … UGGAAUUCUCGGGUGCCAA
Target sequence (chain): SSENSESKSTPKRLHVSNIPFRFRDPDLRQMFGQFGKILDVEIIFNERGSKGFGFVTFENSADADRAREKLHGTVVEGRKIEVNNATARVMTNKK
Oligonucleotide	RBNS enrichment (R)
UAAUGACCGUUCUGUGUCCCAUGUAUGUCUCUGACCAUCCACAGCCGCCCCUCCUCCAUACCCCAGGGAUAAUUUUUCCUUCAAACCUUCCCUUUCCAAGGGACACUGGG	0.555
UGGUAUGUAUGGUCUGUGUCUUUGGUGAAAUGCAGACUAGAUACCUAAGAACCAGCUUCCCAGUGGGGCUCCCUACUUUGUGUGCACCUUGGGCAGUGCCUCUGGGCACU	0.453
CUCCUUGGGAUGAAGAAAUUUCUCUUUCCCUGUCAUGAGUGUCCAGCCAGGGAGCAGGGAGGCAGUGUCAGGGAGGGACUCUCAUCCUGGAGGAAAUGGGAUUCCAAGUC	0.328
UCUCUUGUGAGGUAUCUUCAUUUAUGCACUGUCCAAAAAUAGCCAUGUGUAAGAGUCUUUCUGUAUGACGAACUACAUGGAAAAGACUUCUGUGGACAUAAUUCUGACCG	0.432
GCCAAGCCAGGCCUGGCUGUGUCUGUAGUCAUUUGCCCUCUCAUUCGGCCUAUAUCUGACCAUUAGGUCCCUCCCCUUCAGUAGGUCCUGGAGACAUAGGGGCUGCUACC	0.279
GCACUGGUCACAACCGGGCAGUGGACUGGUGGAGCCUGGGAGCCCUGAUGUACGACAUGCUCACUGGAUCGGCAAGUCCAGCUUCCUUGGGCGCAGGGUGGGUGUUGGGG	0.259
UUCCCUGAUGUCACACCCCACUUCCCGUCUCCCUGCACCCUGGGGCUUGAGACUGGUGUCUGUUUCAUCGUCCCAGGACACGGCAAAUGAAGUCAGAACAGAAGGAGGAC	0.326
CCUGACCUCGUGAUCCGCCCGCCUUGGCCUCCCAAGGUGCUGGGAUUACAAGCGUGAGCCACCGCACCCGGCCUGAAAAUAUUUUCUAAAAAGAUAAAAAAUAUACAUAA	0.333
CAUAAGGAGGGAACCCAGUACACAAUUAUUUUUUAUUUGGGAAUCAGGGAAUAGUUCCCAAAUAUACAGGAUUUAUUGAUAAGAUUUUUUUUCUUCCCUUCAUAUAUCCA	0.737
AGUAACUAAAACACCCUUCUCUCGGAAUAAUAGACCCUGAAGUCUCUCUUUUUCAAGUUGUCCUUUCUUCACCCUUUACUGAUUUAAUACAGAAUAACAAUCUUAUUUUC	0.576
UAAGUUUAAACUCUUCCGAAGAUUAUGAAUGGGUCAGCACAAAUUUUUAGGCAACUGCUUUUUCCAUGUUCUGAGAUCUACGGGCUACAACAAAUUUUAUCAGCAGUGUU	0.919
AAUAUGGCAUCUUUCGAUUUCUGUAUAAAAACAGACCUUUUAAAAAAUAUUUCUGUAACUUAAGAAACCUGACAUUUAUGUCAUAUUUUCUCUUUAGGUAAGAUUUGGUU	0.496
